# Measured values pooled from the literature.
# Protocols differ between the studies behind these lines. ± gives the spread as reported.
# Organism: Acinetobacter baumannii
SMILES,test,test system,setting,scale,endpoint,value
CCCCCCCC(=O)N[C@@H](CCCCNS(=O)(=O)c1cccc2c(N(C)C)cccc12)C(=O)N[C@H](C(=O)N[C@@H](CCN)C(=O)N[C@H]1CCNC(=O)[C@H]([C@@H](C)O)NC(=O)[C@H](CCN)NC(=O)[C@H](CCN)NC(=O)[C@H](CC(C)C)NC(=O)[C@@H](Cc2ccccc2)NC(=O)[C@H](CCN)NC1=O)[C@@H](C)O,"binding, fluorometric titration","ATCC 19606 colistin-susceptible, whole cells",pH 7.0,,Kd,7.9 ± 2.6 µM
Oc1ccc(F)cc1-c1nc2c(Cl)cc(Cl)cc2[nH]1,,colistin-resistant,"concentration not given, added: polymyxin B nonapeptide up to 10 µg/mL",,MIC change,no effect
CCCCCCCC(=O)N[C@@H](CCN)C(=O)N[C@H](C(=O)N[C@@H](CCN)C(=O)N[C@H]1CCNC(=O)[C@H]([C@@H](C)O)NC(=O)[C@H](CCN)NC(=O)[C@H](CCN)NC(=O)[C@H](CC(C)C)NC(=O)[C@@H](Cc2ccccc2)NC(=O)[C@H](CCN)NC1=O)[C@@H](C)O,"outer membrane integrity, flow cytometry",5075,"concentration not given, 1 h, polymyxin treatment",baseline: vehicle,DiBAC4 fluorescence,~36.8 fold
CCCCCCCCCCCCCCCCCC(=O)N[C@@H](CCCCN)C(=O)N[C@@H](CCCCN)C(=O)N[C@@H](CCCNC(=N)N)C(=O)N[C@@H](CCCCN)C(N)=O,,clinical isolate,,,MBC,128 µg/mL
C[C@H]1COc2c(N3CCN(C)CC3)c(F)cc3c(=O)c(C(=O)N[C@@H](CCCNC(=N)N)C(=O)N[C@@H](Cc4ccc(-c5ccccc5)cc4)C(=O)N[C@@H](CCCNC(=N)N)C(=O)N[C@@H](Cc4ccc(-c5ccccc5)cc4)C(=O)N[C@@H](CCCNC(=N)N)C(N)=O)cn1c23,broth microdilution,ATCC 1799,,baseline: MIC of unconjugated components,fold MIC improvement,4 to 40 fold
CC(C)C[C@H](NC(=O)[C@H](Cc1ccc(O)cc1)NC(=O)[C@@H]1CCCN1C(=O)[C@H](CCCNC(=N)N)NC(=O)[C@@H]1CCCN1C(=O)[C@H](CCCCN)NC(=O)[C@H](CC(=O)O)NC(=O)[C@@H]1CCCN1C(=O)[C@H](CCCNC(=N)N)NC(=O)C1(N)CCCCC1)C(=O)N1CCC[C@H]1C(=O)N[C@@H](CCCNC(=N)N)C(=O)N1CCC[C@H]1C(=O)N[C@@H](CCCNC(=N)N)C(=O)N1CCC[C@H]1C(=O)N1CCC[C@H]1C(=O)N[C@@H](CCCNC(=N)N)C(=O)N1CCC[C@H]1C(=O)N[C@H](C(=O)N[C@@H](CCCNC(=N)N)C(=O)N[C@@H](CSc1c(F)c(F)c(-c2c(F)c(F)c(SC[C@H](NC(=O)[C@H](CCCNC(=N)N)NC(=O)[C@@H](NC(=O)[C@@H]3CCCN3C(=O)[C@H](CCCNC(=N)N)NC(=O)[C@@H]3CCCN3C(=O)[C@@H]3CCCN3C(=O)[C@H](CCCNC(=N)N)NC(=O)[C@@H]3CCCN3C(=O)[C@H](CCCNC(=N)N)NC(=O)[C@@H]3CCCN3C(=O)[C@H](CC(C)C)NC(=O)[C@H](Cc3ccc(O)cc3)NC(=O)[C@@H]3CCCN3C(=O)[C@H](CCCNC(=N)N)NC(=O)[C@@H]3CCCN3C(=O)[C@H](CCCCN)NC(=O)[C@H](CC(=O)O)NC(=O)[C@@H]3CCCN3C(=O)[C@H](CCCNC(=N)N)NC(=O)C3(N)CCCCC3)C(C)C)C(=O)NN)c(F)c2F)c(F)c1F)C(=O)NN)C(C)C,"inner membrane permeabilization, PI/SYTO flow cytometry",,1 × MBC,,PI-positive bacteria,50 to 60%
CCCCCCCCCCCCCCC(=O)N[C@@H](CCCCN)C(=O)N[C@@H](CCCCN)C(=O)N[C@@H](CCCCN)C(=O)N[C@@H](CCCCN)C(=O)N[C@@H](CCCCN)C(N)=O,,clinical isolate,,,MBC,128 µg/mL
CC(C)C[C@H](NC(=O)[C@H](Cc1ccc(O)cc1)NC(=O)[C@@H]1CCCN1C(=O)[C@H](CCCNC(=N)N)NC(=O)[C@@H]1CCCN1C(=O)[C@H](CCCCN)NC(=O)[C@H](CC(=O)O)NC(=O)[C@@H]1CCCN1C(=O)[C@H](CCCNC(=N)N)NC(=O)C1(N)CCCCC1)C(=O)N1CCC[C@H]1C(=O)N[C@@H](CCCNC(=N)N)C(=O)N1CCC[C@H]1C(=O)N[C@@H](CCCNC(=N)N)C(=O)N1CCC[C@H]1C(=O)N1CCC[C@H]1C(=O)N[C@@H](CCCNC(=N)N)C(=O)N1CCC[C@H]1C(=O)N[C@H](C(=O)N[C@@H](CCCNC(=N)N)C(=O)N[C@@H](CSc1c(F)c(F)c(SC[C@H](NC(=O)[C@H](CCCNC(=N)N)NC(=O)[C@@H](NC(=O)[C@@H]2CCCN2C(=O)[C@H](CCCNC(=N)N)NC(=O)[C@@H]2CCCN2C(=O)[C@@H]2CCCN2C(=O)[C@H](CCCNC(=N)N)NC(=O)[C@@H]2CCCN2C(=O)[C@H](CCCNC(=N)N)NC(=O)[C@@H]2CCCN2C(=O)[C@H](CC(C)C)NC(=O)[C@H](Cc2ccc(O)cc2)NC(=O)[C@@H]2CCCN2C(=O)[C@H](CCCNC(=N)N)NC(=O)[C@@H]2CCCN2C(=O)[C@H](CCCCN)NC(=O)[C@H](CC(=O)O)NC(=O)[C@@H]2CCCN2C(=O)[C@H](CCCNC(=N)N)NC(=O)C2(N)CCCCC2)C(C)C)C(=O)NN)c(F)c1F)C(=O)NN)C(C)C,flow cytometry,,"2 × MBC, 90 min",baseline: untreated,ROS generation,4.8 fold
CCCCCCCCCCCCCCCCC(=O)N[C@@H](CCCCN)C(=O)N[C@@H](CCCCN)C(=O)N(CCCCN)CC(=O)N[C@@H](CCCCN)C(=O)N[C@@H](CCCCN)C(N)=O,,clinical isolate,,,MBC,128 µg/mL
O.O.O.O.O=C([O-])Cc1ccccc1Nc1c(Cl)cccc1Cl.O=C([O-])Cc1ccccc1Nc1c(Cl)cccc1Cl.[Na+].[Na+].c1cnc2c(c1)ccc1cccnc12.c1cnc2c(c1)ccc1cccnc12,crystal violet,ATCC 19606,250 µM,,biofilm inhibition,69.782 ± 0.065%
COc1ccc(-c2ccn(CC[C@](C)(C(=O)NO)S(C)(=O)=O)c(=O)c2)c(F)c1,"microbial growth, broth dilution",,clinical isolate,,MIC90,> 64 µg/mL
CCCCCCCCCCCCCC(=O)N[C@@H](Cc1ccc2ccccc2c1)C(=O)N[C@@H](CCCCN)C(=O)N[C@@H](CCCCN)C(=O)N[C@@H](CCCCN)C(=O)N[C@@H](CCCCN)C(N)=O,,clinical isolate,,,MBC,128 µg/mL
CC(=O)N[C@H](CCCCN)C(=O)N[C@H](CC(C)C)C(=O)N[C@H](CCCCN)C(=O)N[C@H](CO)C(=O)N[C@H](CC(C)C)C(=O)N[C@H](CC(C)C)C(=O)N[C@H](CCCCN)C(=O)N[C@@H](C(=O)N[C@H](CC(C)C)C(=O)N[C@H](CO)C(=O)N[C@H](CCCCN)C(=O)N[C@H](C)C(=O)N[C@H](CCCCN)C(=O)N[C@H](CCCCN)C(=O)N[C@H](CCCCN)C(=O)N[C@H](CC(C)C)C(=O)N[C@H](CC(C)C)C(=O)N[C@H](CCCCN)C(=O)N[C@@H](C(=O)N[C@H](C)C(=O)N[C@H](CC(C)C)C(=O)N[C@H](CCCCN)C(=O)N[C@H](C)C(=O)N[C@H](CC(C)C)C(=O)N[C@H](CO)C(=O)N[C@H](CCCCN)C(N)=O)[C@H](C)O)[C@H](C)O,,11 isolates,"24 h, 37 °C",,MIC geometric mean,0.5 µM

# For quick reference, copied from above:
SMILES,test,test system,setting,scale,endpoint,value
CCCCCCCCCCCCCCCCCC(=O)N[C@@H](CCCCN)C(=O)N[C@@H](CCCCN)C(=O)N[C@@H](CCCNC(=N)N)C(=O)N[C@@H](CCCCN)C(N)=O,,clinical isolate,,,MBC,128 µg/mL
